Measured values pooled from the literature.
Parts stem from different laboratories: compare values within a part only.

Sample 1
Target: Myc proto-oncogene protein, bHLH-zipper, MAX partner unstated (MYC, Homo sapiens, UniProt P01106, residues 368-449)
Chain of UniProt P01106 (368-449, looked up): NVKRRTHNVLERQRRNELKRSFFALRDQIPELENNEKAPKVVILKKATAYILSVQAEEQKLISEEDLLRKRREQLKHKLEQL
Method: protein-binding microarray
Molecule type: double-stranded DNA, one strand shown
Matrix: in vitro
Tested at: not given
Setting: k-mer, scored over probes, only values ≥0.25
Reading: higher = stronger binding
Oligonucleotide | E-score
AATCGTGC | 0.278
ATATGGCC | 0.291
CCTCCCCG | 0.325
AAAGCACG | 0.323
CCGTACAC | 0.28
GTGGCGAA | 0.272
CCCCGCAC | 0.347
CTCATGCA | 0.305
ACGTGTGC | 0.454
CCACGTCA | 0.269
GACCGCAC | 0.278
CCGCCCAC | 0.276
CCCGTGTA | 0.276
CCCGCCCA | 0.38
CACGTCCA | 0.269

Sample 2
Target: Centromere-binding protein 1, full length, N-terminal tag (CBF1, Saccharomyces cerevisiae, UniProt P17106, residues 1-351)
Chain of UniProt P17106 (whole entry, looked up): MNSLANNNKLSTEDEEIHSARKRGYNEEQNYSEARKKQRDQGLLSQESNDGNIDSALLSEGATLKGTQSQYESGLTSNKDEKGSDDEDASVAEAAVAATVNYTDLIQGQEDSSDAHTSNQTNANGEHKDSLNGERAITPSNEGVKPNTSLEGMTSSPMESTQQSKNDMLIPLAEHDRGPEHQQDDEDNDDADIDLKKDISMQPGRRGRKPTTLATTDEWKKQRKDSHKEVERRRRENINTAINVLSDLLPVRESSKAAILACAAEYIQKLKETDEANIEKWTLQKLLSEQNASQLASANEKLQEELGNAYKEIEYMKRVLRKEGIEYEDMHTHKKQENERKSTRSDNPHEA
Method: protein-binding microarray
Molecule type: double-stranded DNA, one strand shown
Matrix: in vitro
Tested at: 0.8 µM
Setting: whole 60-bp probe, no competitor
Reading: higher = stronger binding
All sequences stand within: … GTCTTGATTCGCTTGACGCTGCTG
Oligonucleotide | fluorescence intensity
GAATAAATGAAAAGAAACGTGCAACGCATTTATTAG | 629 a.u.
CTAACAACTTGTATGCACGATGTCGGATCAAAATTC | 538 a.u.
CTACGTATACGTTTAAGTGTGATTGCGCCTATTTTC | 541 a.u.
GAATAGAAACATTATCACGCACTGCGTTTTGCTTAG | 604 a.u.
GAAACATAGCCCAAAGTCATGAGGAGAGCTTCTTAG | 524 a.u.
TGTACGAAGCTATTGCACGTCCTTATAGTAGTTAGG | 527 a.u.
GAACCTCGAATGTTGCACGCCCAGAGAACTTTATAG | 548 a.u.
CTAATGTTACCCTATCGTGTGCAATTTTTATTTTTC | 571 a.u.
GAATGAGATGTAAATTACGTGAATTCCTCCGGTTAG | 512 a.u.
CTACAGAAAATAGTCGACGTCAGTCACCTCCAGTTC | 551 a.u.
GAAAAACGCGGTAGTAACGTGGGGTACTTTAAATAG | 596 a.u.
GAACAAATATCGCGTTACGTGGTGGTGAACAGATAG | 550 a.u.
GAAGCAGTAAACGATCACGCAACTACTCCATTTTAG | 616 a.u.
TGTACGAAGCTATACGTGATGGCTATAGTAGTTAGG | 588 a.u.
CTATGGTCGTCAGGTATCACGAGCGGGTAACAGTTC | 952 a.u.
GAAACATGTCTATGTTTCGTGCTTTTGCCGATTTAG | 455 a.u.
CTATTGTGCGTTTTTCACGTTGACGTGCTTCTTTTC | 599 a.u.
CTACTTTCTCTGCTCCATGTGAATTAAATAAGTTTC | 723 a.u.
CTAGCTTGTGTTGATCACGTCTTACGGGAAATATTC | 844 a.u.

Sample 3
Target: Histone acetyltransferase KAT6A, both winged helices, GST fusion (KAT6A, Homo sapiens, UniProt Q92794, residues 1-181)
Method: protein binding microarray
Molecule type: double-stranded DNA, one strand shown
Matrix: in vitro
Tested at: not given
Setting: 8-mer, flanks averaged, mean of 2 arrays, mostly near background
Reference: not given
Reading: higher = stronger binding
Construct (chain): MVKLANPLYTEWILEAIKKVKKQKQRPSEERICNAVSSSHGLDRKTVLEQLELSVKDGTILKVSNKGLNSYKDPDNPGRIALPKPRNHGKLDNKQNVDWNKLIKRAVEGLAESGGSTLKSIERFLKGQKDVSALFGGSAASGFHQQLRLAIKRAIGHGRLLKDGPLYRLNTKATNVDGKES
Oligonucleotide | E-score
AGCGCTCG | 0.295
ATTTTCAA | -0.179
AACACGAT | 0.00886
GGTCGTAC | -0.0207
CGCTAGCA | 0.0202
CGTGAGAG | 0.00686
CCGTGGGC | 0.184
AGGTCTTC | -0.183
AGCCTGCA | -0.186
AGTACTAA | -0.161
TATCGCCA | 0.0336
CGAAAGGC | 0.106
AGGTAGGA | -0.105
CACAAACC | -0.185
CAAGCCAC | -0.2
AACCACCA | -0.266

Sample 4
Target: RNA binding protein fox-1 homolog 2, RRM domain, GST-SBP tag (RBFOX2, Homo sapiens, UniProt O43251-10, residues 100-194)
Method: RNA Bind-n-Seq
Molecule type: RNA
Matrix: in vitro
Tested at: 365 nM
Setting: natural RNA segment, single round, ends assumed
Reference: no-protein control
Reading: higher = stronger binding
All sequences stand within: GGGAGUUCUACAGUCCGACGAUC … UGGAAUUCUCGGGUGCCAA
Target sequence (chain): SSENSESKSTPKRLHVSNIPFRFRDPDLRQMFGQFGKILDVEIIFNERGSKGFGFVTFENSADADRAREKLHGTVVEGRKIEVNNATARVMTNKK
Oligonucleotide | RBNS enrichment (R)
AAACAUACGUUCUUUUCAAGACUUCCUCAUGAAUCUCUCAAUUAUAGGAAAAGUUAUUGUGAUAAAAUAGGAACAGCUGAAAGAUUGAUUAAUGAACUAUUGUUAAUUCU | 0.433
GAGAGGCUCUUACUAGGGCCCUCAUUUCUCCUUUUCUGUAUAAGUAUAAGGUCCAGGCUGGUCCUUACUCUUCCUGGGACCAAAAGCACCCAGAGGCAUUAACAGGUCCC | 0.243
AAAAAUAAAAUCUUUACCUGUCGAAUUGUUGCUGCAGAUGAUUGUUGUGGAAAAUCUGGAUCAUUGACCUCUGUGCUUUCAUUCCUAGAGAUGUUUUAUAGUUACAUGAG | 0.47
UUUAGAGUUUUUUUAAUUAACACUUGUGUUGCUAAAUUCUAUUUAUGUAAGUCUGCUAAAGUUUUUUAGCCCACUUAAAACUUAAGACAACCAUUUAAAAUAAUGGAUGG | 0.325
GUGGACACCCCUCGCUCUGAUGCCAACUGCAGAUAAUACACACCUCCUGCAGCGUCCAGCCACGGCUCCAGGGCACUGCUCUCCUCCUUGCACCGGUGAAACUCAGGCCA | 0.5
GAAAAGACUGCCAAACUAUUGGCUGACCAAGGUUUUUAAAUUCAGAAGAGCAAUUCUAAAUCUAAAGAAAUGUAUCAUUAAAGUAAUUACGUUACAUUGAAACCUGCUGC | 0.402
CAGGCCAGCCUCUCACUCCCAAGCCAUAGUCCUACUCCCAUGGGAAAGGAGGUCUUCUCUCUGCCCUGGAGGAGGACAUAUAGCUGAUUUCUGUUCUUUUAACUCUUAAA | 0.448
GAACUUGGAGGAGUUUGGCAAAGUCUGAAUAGGUCAACCUGCAGGCGUAACUAUUUUUGACCUAGUCAGUUUUUAAACAAUGUGCAUUUGAAGGAGUUAAUUAAAAGAGA | 0.588

Other studies, line by line
Molecule type: peptide
Reading: direction not given
Sequence | target or system | read-out | method | organism | strain | setting | enrichment score
SSEVARHLLFQSHM | Saccharomyces cerevisiae | mating pheromone growth arrest | pooled competitive growth deep sequencing |  | no Cln2 overexpression | peptide tiling library | -0.0955
SMTDFYHSKRRLIFSK | Saccharomyces cerevisiae | mating pheromone growth arrest | pooled competitive growth deep sequencing |  | no Cln2 overexpression | peptide tiling library | 0.0606
LLRRLQDVANDRG | human cyclin A2 | peptide binding | competitive growth sequencing | Saccharomyces cerevisiae | cyclin A2-Cln2 fusion strain | mutational scanning library 2 | -0.552
GAPLKKLFTSTGL | Cln2 (Saccharomyces cerevisiae) | peptide binding | competitive growth sequencing | Saccharomyces cerevisiae | unfused Cln2 strain | mutational scanning library 1 | -1.33

A few entries again (sample 2):
Oligonucleotide | fluorescence intensity
CTAACAACTTGTATGCACGATGTCGGATCAAAATTC | 538 a.u.
CTACGTATACGTTTAAGTGTGATTGCGCCTATTTTC | 541 a.u.
GAATAGAAACATTATCACGCACTGCGTTTTGCTTAG | 604 a.u.
GAAACATAGCCCAAAGTCATGAGGAGAGCTTCTTAG | 524 a.u.
